Published values of several laboratories.
Every numbered part comes from another study and shows a few of its results, in no order. Values joined by “and” are separate records of one study, mostly repeats; a detail may differ.
UniProt P46934, sequence (whole entry, looked up): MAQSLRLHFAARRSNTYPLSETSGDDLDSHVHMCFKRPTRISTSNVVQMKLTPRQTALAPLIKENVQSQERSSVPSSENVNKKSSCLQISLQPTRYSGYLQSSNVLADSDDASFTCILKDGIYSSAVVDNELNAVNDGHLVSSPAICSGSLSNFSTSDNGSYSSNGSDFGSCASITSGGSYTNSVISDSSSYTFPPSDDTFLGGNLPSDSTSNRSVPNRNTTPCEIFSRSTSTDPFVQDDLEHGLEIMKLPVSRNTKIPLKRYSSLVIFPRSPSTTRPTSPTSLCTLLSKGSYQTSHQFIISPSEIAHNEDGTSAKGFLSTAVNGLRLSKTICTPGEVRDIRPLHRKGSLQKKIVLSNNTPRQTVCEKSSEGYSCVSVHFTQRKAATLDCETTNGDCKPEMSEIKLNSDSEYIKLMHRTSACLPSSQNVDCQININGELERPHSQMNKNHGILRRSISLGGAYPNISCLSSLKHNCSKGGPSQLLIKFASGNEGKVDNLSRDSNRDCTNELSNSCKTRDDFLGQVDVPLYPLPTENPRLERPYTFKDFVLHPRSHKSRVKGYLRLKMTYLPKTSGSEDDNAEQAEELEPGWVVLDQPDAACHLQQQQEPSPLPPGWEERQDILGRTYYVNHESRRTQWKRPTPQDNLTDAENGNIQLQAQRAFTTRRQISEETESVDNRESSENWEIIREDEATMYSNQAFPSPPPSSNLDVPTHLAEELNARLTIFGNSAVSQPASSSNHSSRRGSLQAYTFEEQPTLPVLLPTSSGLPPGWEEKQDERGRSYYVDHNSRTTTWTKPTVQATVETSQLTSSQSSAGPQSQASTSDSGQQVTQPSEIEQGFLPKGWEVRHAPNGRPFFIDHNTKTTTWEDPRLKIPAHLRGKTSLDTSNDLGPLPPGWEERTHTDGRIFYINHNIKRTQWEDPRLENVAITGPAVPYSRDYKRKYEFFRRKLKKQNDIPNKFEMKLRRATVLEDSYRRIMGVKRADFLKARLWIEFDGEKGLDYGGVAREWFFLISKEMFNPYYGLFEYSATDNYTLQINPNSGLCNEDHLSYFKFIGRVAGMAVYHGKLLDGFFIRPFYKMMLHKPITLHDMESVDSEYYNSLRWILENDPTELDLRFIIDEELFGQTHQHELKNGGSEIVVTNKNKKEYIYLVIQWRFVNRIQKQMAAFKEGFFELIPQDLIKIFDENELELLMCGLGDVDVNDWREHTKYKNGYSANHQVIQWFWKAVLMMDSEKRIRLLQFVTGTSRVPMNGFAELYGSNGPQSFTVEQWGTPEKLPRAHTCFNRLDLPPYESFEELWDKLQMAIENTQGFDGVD

Sample 1 — species: CD-1 mice, male; route: subcutaneous; dose: 30 mg/kg
Compound: COc1cc(C(=O)OCCCN2CCCN(CCCOC(=O)c3cc(OC)c(OC)c(OCc4ccc([N+](=O)[O-])cc4)c3)CC2)cc(OC)c1OC
The concentration was 29.8 ng/mL (spinal cord; 0.1667 h).
The concentration was 25.6 ng/mL (spinal cord; 8 h).
The concentration was 155 ng/mL (brain; 4.5 h).

Sample 2 — action: degrader
SMILES: Cn1cc(-c2cccc(CN3CCC4(CC3)COc3c4ccc4c3CN([C@H]3CCC(=O)NC3=O)C4=O)c2)cn1
Zinc finger protein Aiolos: Zinc finger protein Aiolos (Homo sapiens, UniProt Q9UKT9)
UniProt Q9UKT9, sequence (whole entry, looked up): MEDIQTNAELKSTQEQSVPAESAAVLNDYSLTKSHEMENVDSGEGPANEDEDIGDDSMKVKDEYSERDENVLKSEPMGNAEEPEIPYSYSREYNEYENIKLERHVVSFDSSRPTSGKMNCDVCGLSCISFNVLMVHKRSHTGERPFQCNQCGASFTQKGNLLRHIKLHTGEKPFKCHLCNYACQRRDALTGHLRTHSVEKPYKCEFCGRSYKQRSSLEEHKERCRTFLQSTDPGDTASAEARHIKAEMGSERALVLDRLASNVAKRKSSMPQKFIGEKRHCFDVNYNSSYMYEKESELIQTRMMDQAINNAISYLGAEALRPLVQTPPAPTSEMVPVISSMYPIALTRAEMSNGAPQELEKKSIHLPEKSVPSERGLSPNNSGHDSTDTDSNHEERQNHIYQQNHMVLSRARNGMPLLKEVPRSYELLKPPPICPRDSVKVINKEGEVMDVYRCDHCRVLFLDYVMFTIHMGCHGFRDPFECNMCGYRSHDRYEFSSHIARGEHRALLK
GSPT1: Eukaryotic peptide chain release factor GTP-binding subunit ERF3A (GSPT1, Homo sapiens, UniProt P15170)
SALL4: Sal-like protein 4 (SALL4, Homo sapiens, UniProt Q9UJQ4)
UniProt Q9UJQ4, sequence (whole entry, looked up): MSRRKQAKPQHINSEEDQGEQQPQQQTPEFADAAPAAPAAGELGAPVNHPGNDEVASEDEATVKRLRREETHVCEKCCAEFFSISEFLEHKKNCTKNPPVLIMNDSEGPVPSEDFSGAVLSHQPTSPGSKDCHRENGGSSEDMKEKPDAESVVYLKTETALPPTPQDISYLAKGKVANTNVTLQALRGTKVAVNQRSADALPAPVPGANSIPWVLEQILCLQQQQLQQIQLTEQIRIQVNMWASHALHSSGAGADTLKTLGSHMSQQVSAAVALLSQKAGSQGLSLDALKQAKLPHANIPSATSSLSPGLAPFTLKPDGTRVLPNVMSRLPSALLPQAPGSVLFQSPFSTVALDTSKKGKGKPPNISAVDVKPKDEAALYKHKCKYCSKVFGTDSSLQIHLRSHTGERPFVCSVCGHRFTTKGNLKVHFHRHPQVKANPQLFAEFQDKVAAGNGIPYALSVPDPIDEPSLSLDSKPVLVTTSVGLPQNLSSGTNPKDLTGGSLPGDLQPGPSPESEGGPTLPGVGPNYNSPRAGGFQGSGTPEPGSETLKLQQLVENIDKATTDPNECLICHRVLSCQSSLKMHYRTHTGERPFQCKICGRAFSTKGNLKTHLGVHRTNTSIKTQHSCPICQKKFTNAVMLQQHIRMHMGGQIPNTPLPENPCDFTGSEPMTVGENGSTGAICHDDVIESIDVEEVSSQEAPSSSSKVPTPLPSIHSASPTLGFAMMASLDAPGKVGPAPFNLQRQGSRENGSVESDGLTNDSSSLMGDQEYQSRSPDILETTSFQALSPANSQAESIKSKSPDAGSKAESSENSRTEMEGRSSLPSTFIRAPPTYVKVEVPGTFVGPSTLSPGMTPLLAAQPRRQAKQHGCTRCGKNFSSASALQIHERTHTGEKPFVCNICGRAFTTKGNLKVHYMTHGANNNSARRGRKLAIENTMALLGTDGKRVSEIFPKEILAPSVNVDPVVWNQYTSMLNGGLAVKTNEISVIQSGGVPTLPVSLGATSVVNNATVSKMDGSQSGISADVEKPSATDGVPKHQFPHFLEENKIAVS
IKZF4: Zinc finger protein Eos (IKZF4, Homo sapiens, UniProt Q9H2S9)
UniProt Q9H2S9, sequence (whole entry, looked up): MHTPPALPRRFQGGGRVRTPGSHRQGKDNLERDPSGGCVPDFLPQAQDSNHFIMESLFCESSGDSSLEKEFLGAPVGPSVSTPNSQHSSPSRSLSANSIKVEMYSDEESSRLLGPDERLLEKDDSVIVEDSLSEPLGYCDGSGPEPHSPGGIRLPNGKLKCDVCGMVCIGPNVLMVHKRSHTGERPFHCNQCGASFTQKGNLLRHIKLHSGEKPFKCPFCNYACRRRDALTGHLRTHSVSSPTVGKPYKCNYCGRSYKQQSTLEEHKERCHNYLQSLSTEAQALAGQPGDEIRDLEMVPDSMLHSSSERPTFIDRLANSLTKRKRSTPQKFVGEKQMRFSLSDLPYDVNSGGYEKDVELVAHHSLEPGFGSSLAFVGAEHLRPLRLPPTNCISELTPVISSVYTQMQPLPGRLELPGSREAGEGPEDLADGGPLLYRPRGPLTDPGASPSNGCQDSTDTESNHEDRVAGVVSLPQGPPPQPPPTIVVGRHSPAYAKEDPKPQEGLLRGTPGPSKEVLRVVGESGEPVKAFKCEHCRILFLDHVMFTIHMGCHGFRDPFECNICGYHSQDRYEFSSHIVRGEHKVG
CRBN/Zinc finger protein Helios: CRBN/Zinc finger protein Helios (Homo sapiens, UniProt Q96SW2+Q9UKS7)
UniProt Q9UKS7, sequence (whole entry, looked up): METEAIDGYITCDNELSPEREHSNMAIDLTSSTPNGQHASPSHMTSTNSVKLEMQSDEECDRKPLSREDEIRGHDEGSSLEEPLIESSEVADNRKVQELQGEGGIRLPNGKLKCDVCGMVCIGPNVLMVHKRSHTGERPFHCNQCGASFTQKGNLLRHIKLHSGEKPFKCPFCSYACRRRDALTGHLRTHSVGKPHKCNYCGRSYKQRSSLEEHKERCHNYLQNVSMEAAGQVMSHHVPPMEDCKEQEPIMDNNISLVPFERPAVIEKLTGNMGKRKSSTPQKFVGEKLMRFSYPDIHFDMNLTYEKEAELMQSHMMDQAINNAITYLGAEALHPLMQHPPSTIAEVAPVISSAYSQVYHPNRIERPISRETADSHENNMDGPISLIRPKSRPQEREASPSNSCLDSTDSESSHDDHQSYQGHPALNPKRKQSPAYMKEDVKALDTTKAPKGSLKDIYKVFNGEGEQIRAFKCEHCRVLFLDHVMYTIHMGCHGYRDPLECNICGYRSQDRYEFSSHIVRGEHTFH
UniProt Q96SW2, sequence (whole entry, looked up): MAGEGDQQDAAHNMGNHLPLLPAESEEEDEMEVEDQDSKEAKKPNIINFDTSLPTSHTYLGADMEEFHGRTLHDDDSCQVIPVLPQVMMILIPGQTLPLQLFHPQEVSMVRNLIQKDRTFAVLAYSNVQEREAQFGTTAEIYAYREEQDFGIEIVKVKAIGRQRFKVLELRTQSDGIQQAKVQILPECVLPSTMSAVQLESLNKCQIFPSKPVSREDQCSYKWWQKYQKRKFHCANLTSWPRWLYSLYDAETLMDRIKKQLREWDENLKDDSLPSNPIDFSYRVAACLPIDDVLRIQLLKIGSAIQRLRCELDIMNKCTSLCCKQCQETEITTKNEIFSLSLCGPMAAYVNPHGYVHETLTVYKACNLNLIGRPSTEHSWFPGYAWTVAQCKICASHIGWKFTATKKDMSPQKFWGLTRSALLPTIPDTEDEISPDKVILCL
DNA-binding protein Ikaros: DNA-binding protein Ikaros (Homo sapiens, UniProt Q13422)
UniProt Q13422, sequence (whole entry, looked up): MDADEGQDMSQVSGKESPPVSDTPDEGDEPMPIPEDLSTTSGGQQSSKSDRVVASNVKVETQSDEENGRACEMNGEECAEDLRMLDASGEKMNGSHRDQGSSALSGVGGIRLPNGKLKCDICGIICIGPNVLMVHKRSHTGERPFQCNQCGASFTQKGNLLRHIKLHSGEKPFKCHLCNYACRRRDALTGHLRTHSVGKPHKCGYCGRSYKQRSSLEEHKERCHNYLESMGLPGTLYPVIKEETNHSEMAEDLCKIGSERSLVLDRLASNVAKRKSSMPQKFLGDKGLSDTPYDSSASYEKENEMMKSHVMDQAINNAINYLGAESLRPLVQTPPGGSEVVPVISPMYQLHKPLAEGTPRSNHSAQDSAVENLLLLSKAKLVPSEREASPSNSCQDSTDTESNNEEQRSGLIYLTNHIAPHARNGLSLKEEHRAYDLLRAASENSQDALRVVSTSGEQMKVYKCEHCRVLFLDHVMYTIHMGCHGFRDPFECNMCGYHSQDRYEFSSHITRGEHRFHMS
For Zinc finger protein Aiolos; HiBiT; HEK293; 370.37 nM: remaining protein read 88.1% and 93.4%.
For GSPT1; HiBiT; HEK293; 0.5081 nM: remaining protein read 86.2% and 98.4%.
It gave 70.9% and 73.3% for remaining protein (SALL4; HiBiT; HEK293; 1111.11 nM).
It gave 99.1% and 106% for remaining protein (IKZF4; HiBiT; HEK293; 0.05081 nM, 6 h).
It gave 99.8% and 98% for remaining protein (GSPT1; HiBiT; HEK293; 4.572 nM).
It gave 98.5% and 83.1% for remaining protein (SALL4; HiBiT; HEK293; 0.5081 nM).
The remaining protein was 52.6% and 51.4% (CRBN/Zinc finger protein Helios; flow cytometry; Jurkat; 37 nM).
For CRBN/Zinc finger protein Helios; flow cytometry; Jurkat; 0.1 nM: remaining protein read 108% and 103%.
It gave 90.6% and 88.4% for remaining protein (DNA-binding protein Ikaros; HiBiT; HEK293; 10000 nM).
For DNA-binding protein Ikaros; HiBiT; HEK293; 0.5081 nM: remaining protein read 99.1% and 98.2%.
For CRBN/Zinc finger protein Helios; flow cytometry; primary human regulatory T cells; 1.372 nM, 6 h: remaining protein read 95.8% and 95%.
The remaining protein was 91% and 90.4% (DNA-binding protein Ikaros; HiBiT; HEK293; 370.37 nM).
IKZF4; HiBiT; HEK293; 0.4572 nM, 3 h — remaining protein: 98.5% and 114%.
It gave 98.2% and 95.1% for remaining protein (Zinc finger protein Aiolos; HiBiT; HEK293; 0.1694 nM).
For IKZF4; HiBiT; HEK293; 1000 nM, 6 h: remaining protein read 107% and 102%.
The remaining protein was 94% and 101% (Casein kinase I isoform alpha (CSNK1A1, Homo sapiens, UniProt P48729); HiBiT; HEK293; 370.37 nM).
For CRBN/Zinc finger protein Helios; flow cytometry; primary human regulatory T cells; 0.4572 nM, 6 h: remaining protein read 102% and 98%.
IKZF4; HiBiT; HEK293; 12.35 nM, 6 h — remaining protein: 103% and 98.3%.

Sample 3 — action: agonist
Target: Delta-type opioid receptor, with Gi1 (OPRD1, Homo sapiens, UniProt P41143)
`N=C(N)NCCCCCCCN1CC[C@]23c4c5ccc(O)c4O[C@H]2c2nc4ccccc4cc2C[C@@]3(O)[C@H]1C5` gave an EC50 of 28.2 nM.
`N=C(N)NCCCCCN1CC[C@]23c4c5ccc(O)c4O[C@H]2c2[nH]c4ccccc4c2C[C@@]3(O)[C@H]1C5` gave an EC50 of 2.82 nM and 3.63 nM.
The EC50 of `NC(=O)NCCCCCCN1CCC23c4c5ccc(O)c4OC2c2nc4ccccc4cc2CC3(O)C1C5` (stereo not drawn) is reported as 1410 nM.

Sample 4 — cell line: HCC1569; method: in-cell western; item: CDK1 phospho-Thr14
With `Cc1ccc(O)c(C)c1-c1cnc2[nH]c(-c3cnc(N4CCC(CN5CCN(c6ccc(C(=O)NC7CCC(=O)NC7=O)c(F)c6)CC5)CC4)nc3)cc2c1C#N` (racemic) the IC80 was 395 nM.
`Cc1ccc(O)c(C)c1-c1cnc2[nH]c(-c3cnc(N4CCC(CN5CCN(c6ccc7c8c(cccc68)C(=O)N7C6CCC(=O)NC6=O)CC5)CC4)nc3)cc2c1C#N` (racemic) has an IC80 of greater than 1000 nM.
With `Cc1ccc(O)c(C)c1-c1cnc2[nH]c(-c3cnc(N4CCC(CN5CCN(c6ccc(N7CCC(=O)NC7=O)cc6F)CC5)CC4)nc3)cc2c1C#N` the IC80 was 640 nM.

Sample 5 — organism: Arabidopsis thaliana; strain: Col-0
SMILES: C=CCN1C(=O)C(O)(C(=O)O)Oc2cc(F)ccc21 (stereo not drawn)
For hypocotyl length; 50.0 µg/mL, 7 days, seed germination, dark: inhibition read 26.1%.
It gave 14.5% for inhibition (root length; seedlings; 3.125 µg/mL; baseline: water control).
The inhibition was 18.3% (hypocotyl length; seedlings; 25 µg/mL).

Other studies, line by line
pknB: Serine/threonine-protein kinase PknB (pknB, Mycobacterium tuberculosis, UniProt P9WI81)
The remaining binding of `O=C(Nc1ccccc1)Nc1cccc(Oc2ccc3nccn3n2)c1` is reported as 72% (pknB; binding; 1 µM).
`CCOC(=O)/C=C/CN(CCCCN1c2ccccc2CCc2ccc(Cl)cc21)Cc1ccccc1.O=C(O)/C=C\C(=O)O`: “ubiquitin chain formation AUC” 95600 a.u. and 105000 a.u. and 101000 a.u. and 93100 a.u. and 97100 a.u. and 102000 a.u. (E3 ubiquitin-protein ligase NEDD4, HECT domain (Homo sapiens, UniProt P46934); enzyme activity, inhibitor, Ub-TR-FRET; HECT domain; 0.01524 µM; higher = more chain formation).
With `O=[N+]([O-])c1ccc(C2=NOC3(NC(c4ccccc4)=NO3)N2c2ccccc2)cc1` (stereo not drawn) the resistance index was > 300 and 333 (Plasmodium falciparum; SB1-A6 atovaquone-resistant; baseline: IC50 SB1-A6 over 3D7).
For `CC[C@H](C)[C@H](NC(=O)[C@H](CCC(N)=O)NC(=O)[C@H](Cc1ccc(O)cc1)NC(=O)[C@H](CCC(N)=O)NC(=O)[C@@H]1CCCN1C(=O)[C@H](CCSC)NC(=O)[C@@H](N)Cc1ccc(O)cc1)C(=O)O`, the IC50 was greater than 200000 nM (UDP-N-acetylglucosamine--peptide N-acetylglucosaminyltransferase 110 kDa subunit (OGT, Homo sapiens, UniProt O15294); enzyme activity, inhibitor, fluorescence).
With `Cc1cc(-c2cnc(N)c3c(-c4ccc5scnc5c4)csc23)n(C)n1` the viability was 39.7% and 41.5% and 44.9% and 33.7% (L929; MEM 10% FBS; 12.5 µM).
For `CCC1(c2cccc(-c3cn(C)nc3C)c2)C2=C(Nc3n[nH]cc31)C(F)C(C)(C)CC2=O` (single isomer, unassigned), the remaining binding was 100% (pknB; binding, competition with immobilised ligand; 1 µM).

For quick reference, copied from above (sample 5):
For hypocotyl length; 50.0 µg/mL, 7 days, seed germination, dark: inhibition read 26.1%.
It gave 14.5% for inhibition (root length; seedlings; 3.125 µg/mL; baseline: water control).
The inhibition was 18.3% (hypocotyl length; seedlings; 25 µg/mL).
